# Assay results collected from several papers.
# Parts stem from different laboratories: compare values within a part only. Changes are numbered by the printed parent chain.
# Sequence of UniProt O15294 (whole entry, looked up): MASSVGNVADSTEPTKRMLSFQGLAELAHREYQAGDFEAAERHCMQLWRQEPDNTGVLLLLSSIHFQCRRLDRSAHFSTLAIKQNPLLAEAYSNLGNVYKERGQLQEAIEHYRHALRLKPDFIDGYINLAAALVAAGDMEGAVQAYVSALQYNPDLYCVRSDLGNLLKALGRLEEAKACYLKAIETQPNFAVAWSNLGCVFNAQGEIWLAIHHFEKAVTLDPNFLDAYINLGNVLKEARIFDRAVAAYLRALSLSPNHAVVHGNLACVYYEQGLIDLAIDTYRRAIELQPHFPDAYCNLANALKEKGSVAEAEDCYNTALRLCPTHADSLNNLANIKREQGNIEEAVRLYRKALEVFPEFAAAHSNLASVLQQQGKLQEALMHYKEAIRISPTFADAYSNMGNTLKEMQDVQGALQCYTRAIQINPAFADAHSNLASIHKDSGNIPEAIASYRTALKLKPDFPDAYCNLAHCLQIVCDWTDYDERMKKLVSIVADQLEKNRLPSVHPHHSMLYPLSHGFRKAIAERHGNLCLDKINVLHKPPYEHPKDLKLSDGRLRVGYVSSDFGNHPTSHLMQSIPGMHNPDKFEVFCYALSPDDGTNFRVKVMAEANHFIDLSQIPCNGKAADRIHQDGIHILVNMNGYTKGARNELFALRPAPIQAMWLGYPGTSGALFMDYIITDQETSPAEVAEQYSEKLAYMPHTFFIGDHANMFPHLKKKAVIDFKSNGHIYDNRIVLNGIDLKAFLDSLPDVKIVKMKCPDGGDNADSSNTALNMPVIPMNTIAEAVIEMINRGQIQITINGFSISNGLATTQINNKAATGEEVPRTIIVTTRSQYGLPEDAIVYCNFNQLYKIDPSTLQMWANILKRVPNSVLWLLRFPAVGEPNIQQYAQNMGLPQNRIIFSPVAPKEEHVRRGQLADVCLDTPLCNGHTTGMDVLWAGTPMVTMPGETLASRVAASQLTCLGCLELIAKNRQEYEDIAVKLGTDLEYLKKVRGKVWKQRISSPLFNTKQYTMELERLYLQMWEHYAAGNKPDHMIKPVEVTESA
# Sequence of UniProt Q9NZI8 (178-364, looked up): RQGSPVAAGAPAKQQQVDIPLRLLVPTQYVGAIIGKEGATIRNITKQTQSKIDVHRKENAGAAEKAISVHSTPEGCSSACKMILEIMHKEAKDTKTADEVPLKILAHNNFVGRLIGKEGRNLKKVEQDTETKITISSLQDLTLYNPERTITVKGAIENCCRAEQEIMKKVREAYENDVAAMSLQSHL

# Study 1 — technique: DHFR PCA, dose-response; medium: yeast; setting: Hill fit, mean, not affinity; added: (+)-ABA, dose series; reading: lower = more sensitive
# Target: ABI1, truncated, D143A, DHFR fusion (Arabidopsis thaliana, UniProt P49597)
# Parent: PYL1, truncated, DHFR fusion (Arabidopsis thaliana, UniProt Q8VZS8); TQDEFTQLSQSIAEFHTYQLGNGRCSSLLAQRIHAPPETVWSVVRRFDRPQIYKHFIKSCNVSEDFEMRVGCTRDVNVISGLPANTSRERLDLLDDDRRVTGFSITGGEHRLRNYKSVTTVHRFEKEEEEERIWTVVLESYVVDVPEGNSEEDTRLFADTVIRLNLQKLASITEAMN
Variant,ABA EC50 [µM]
V100S,69.2
N165H,158
R88D,77.3
G148F,23.6
L93D,109
I133Q,1.86
E14M,5.04
L29S,39.9

# Study 2 — technique: RNA Bind-n-Seq; form: RNA; medium: in vitro; concentration: 365 nM; reference: no-protein control; reading: higher = stronger binding
# Target: RNA binding protein fox-1 homolog 2, RRM domain, GST-SBP tag (RBFOX2, Homo sapiens, UniProt O43251-10, residues 100-194)
# Setting: natural RNA segment, single round, ends assumed
# Constant ends, left off below: GGGAGUUCUACAGUCCGACGAUC … UGGAAUUCUCGGGUGCCAA
# Target sequence (chain): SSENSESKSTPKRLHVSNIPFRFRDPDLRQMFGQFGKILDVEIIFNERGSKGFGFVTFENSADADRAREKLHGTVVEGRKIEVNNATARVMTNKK
Sequence,RBNS enrichment (R)
CUGAGGGGGACCCCUGCACCCACCAGGCAAGGUACUGGUGAGGUUUGUCCAAUGGCGGCAGCGGCAGCAGCAGCGGCGGCGGCGGCAGCAGCAGUGGUGGCAGCCCCCCC,0.353
GCAGGACUUCACAAGUUAAUCAUUCCUUAGGCCUCCCUUGGCCCUUUCAUCCUGGAUUCUUAGGUGGGAAUCAGACACUUAGAAAGAUGUUGGGUCAAGGUUCUAGGAGC,0.431
CUGCGGCCUCCGGAGCGCUUUCUCUGAAGCGACUGCACGUUCCUGCUGCUCUCCGAUCUCAUCAGACAGUAGAAUGUAGGGAAAAGCUUUUGCCCGAUGGAUUUUGAAAA,0.981
CCUUCCCUCUAAGUCGGUGGCUUGAGAGCCGGGGAUGUGGAUUUGGUGUGGUUACAGGGUCCCCUGCCUGCCUCCAGCCUCCGUGUGCUCCAGGGUUGUGAGCAGAGCAG,1.83
AAGGAGGGGAGCCUUUGGGGGGCCACCCGGGGCCUGGACCUAUGCAGGGAGGCCACGUCCCACCCCACCUCUUGUUUCUGGGUCCCUGCUCCCCUUUGGGGGUGUGUGUG,0.756
GUAACCAGUUUGCUAUGCUGCAUCUAACCAGACACACCUGACUUAGUAGUAACUCUAAGAACCCUUAACUUACAAACAACUUUGUCUCCUCUUAGACAAUAUUCAUUAAA,0.965
CCAGAUUACUUCCUCCACCCCUCCCUAUCUCACCUGCCCAGCCCUGUGCUGGGGCCCUGCAAUUGGAAUGUUGGCCAGAUUUCUGCAAUAAACACUUGUGGUUUGCGGCC,0.723
ACCCCACCCAAAAGCCCCCUUUGUUACUUAGGCAAUUCCCCUUCCCUGACUCCCGAGGGCUAGGGCUAGAGCAGACCCGGGUAAGUAAAGGCAGACCCAGGGCUCCUCUA,0.488

# Mixed results
# P1: viral docking peptide; TSVRRALFTGGSD; partner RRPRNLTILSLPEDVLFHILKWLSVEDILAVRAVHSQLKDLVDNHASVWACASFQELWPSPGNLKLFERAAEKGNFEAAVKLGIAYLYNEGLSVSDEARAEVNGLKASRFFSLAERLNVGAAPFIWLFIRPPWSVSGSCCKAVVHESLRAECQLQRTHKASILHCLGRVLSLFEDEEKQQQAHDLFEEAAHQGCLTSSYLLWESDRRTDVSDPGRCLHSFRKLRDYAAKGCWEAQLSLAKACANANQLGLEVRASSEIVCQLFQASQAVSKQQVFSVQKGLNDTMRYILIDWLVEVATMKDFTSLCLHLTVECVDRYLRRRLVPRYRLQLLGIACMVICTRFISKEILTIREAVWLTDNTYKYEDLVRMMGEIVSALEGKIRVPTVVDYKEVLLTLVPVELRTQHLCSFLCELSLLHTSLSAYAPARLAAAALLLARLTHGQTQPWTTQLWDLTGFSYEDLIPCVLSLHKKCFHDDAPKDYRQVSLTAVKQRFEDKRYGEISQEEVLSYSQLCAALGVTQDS
Substance,target,test,test system,setting,how to read,quantity,result
P1 F8K,"CCNF, cyclin fold, Cln2 fusion (human)","yeast growth competition, sequencing",yeast,strong parent motif,"reference: not given, higher = stronger binding",normalised enrichment score,0.511
HWFPTHTHYFMRHTS,"OGT (Homo sapiens, UniProt O15294)","binding, phage display NGS",peptide,,reference: input library,minimum log2 enrichment ratio,3.26
AAAAAAAA (biotin),"Insulin-like growth factor 2 mRNA-binding protein 1, KH domains 1-2 (IGF2BP1, Homo sapiens, UniProt Q9NZI8, residues 178-364)",protein domain microarray,"RNA, in vitro","not given, poly(A) 8-mer RNA, whole probe, immobilized GST-fusion domains, most near background","reference: GST loading signal, higher = stronger binding",signal ratio,0.0449
